{"data": "Results from different studies", "note": "Numbered parts are unrelated; each lists some results of a single study. Substitutions count along the parent as printed."}
{"data": "Block 1", "target": "RNA binding protein fox-1 homolog 2, RRM domain, GST-SBP tag (RBFOX2, Homo sapiens, UniProt O43251-10, residues 100-194)", "method": "RNA Bind-n-Seq", "form": "RNA", "sample": "in vitro", "concentration": "365 nM", "notes": "natural RNA segment, single round, ends assumed", "reference": "no-protein control", "reading": "higher = stronger binding", "shared flanks, not repeated": "GGGAGUUCUACAGUCCGACGAUC … UGGAAUUCUCGGGUGCCAA", "Construct (chain)": "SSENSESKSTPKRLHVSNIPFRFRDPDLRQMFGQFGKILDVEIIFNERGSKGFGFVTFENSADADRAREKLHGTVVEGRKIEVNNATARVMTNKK"}
{"Sequence": "GUAAAUAAAUGUAUAUGUUUUAUAAUUCUGGAGAGACAUAAGGAGUCCUACCCGUUGAGGUUGGAGAGGGAAAAUAAAGAAGCUGCCACCUAACAGGAGUCACCCAGGAA", "RBNS enrichment (R)": 0.736}
{"Sequence": "UGUAAUUAUCCUCUGGUGAUGCUGUUUCUCGUUAGUGGCAGUAGUGCCUCCGUCUCCUAGUGAUAAUGCUCCAAGUCUAUGAACUGUUAAAUCAGCAUUCAUUUUAAGAA", "RBNS enrichment (R)": 0.47}
{"Sequence": "AAUUUACUUGGCAUUUUAGGACAUGUACAUGAAACAGUGAAAAUGAGAUCCACCAACAUCUUUUAUUAAGUUCAGUUAUUAGUCUGUGAAGUGCUUUACUUUUUGCACAA", "RBNS enrichment (R)": 0.513}
{"Sequence": "UAUGAACUUGUUUUUCUUAAUCUUUAAGAUGUCAGUAUUCAUGUAAAUAAACAAUAGAUCCAGCUUUUCCCUUUGACGGUGUGACUUUGAUCAAUUUACUUAAUCUGUCU", "RBNS enrichment (R)": 0.39}
{"Sequence": "UUGUCAGCGAGGCUCCCUGCCACCUAUACUACCAGGUGCUUUGUAGCAGAGAGAGCCCAUCUGCAGAAACCCAGUUGUACUACCUGGGCUUGCUUAAUUUCUACAGGCUG", "RBNS enrichment (R)": 0.325}
{"Sequence": "CAAGUUUGAGGACCACCUUGGUGUAUAUAAGCAUGAUCUUUGUUCACACAUAAAAGAGAGAGGGAGUAUGUUUGUGUGUUUCAUGUGCAUACAUAUAUACACACUCCUAA", "RBNS enrichment (R)": 3.22}
{"Sequence": "CCUUCCUGGGAUGUCAGCUCCAGCACUGCCAGCCACCCCCACUGCUCUCUUUGGGACCUGGCCGUGCUUCCUGCUCGUAUGACUACCAGGGGCCAUAUCUGUAUUAACUG", "RBNS enrichment (R)": 0.495}
{"Sequence": "AUAGGUCAGGGGCUAGGUGUUGAACUUAGUUAAUGGAAGACUGAGAGCAGAACAGGUUUGUCAUCUCCGCAAGGCCAGAAAGUGAUCACAAAAAGAGGCAGAUGAUAGAC", "RBNS enrichment (R)": 0.379}
{"data": "Block 2", "target": "CCNA2, cyclin fold, Cln2 fusion (human)", "method": "yeast growth competition, sequencing", "sample": "yeast", "notes": "strong parent motif", "reference": "not given", "reading": "higher = stronger binding", "parent": "KIF20B docking peptide (human); KRAKRKLYTSEIS"}
{"Variant": "KAAKRKLYTSEIS [R2A]", "normalised enrichment score": 1.28}
{"Variant": "KRAKRKLYTSEIA [S13A]", "normalised enrichment score": 1.32}
{"Variant": "KRAKRKLATSEIS [Y8A]", "normalised enrichment score": 0.477}
{"Variant": "KRAKRKLYTSAIS [E11A]", "normalised enrichment score": 1.7}
{"Variant": "ARAKRKLYTSEIS [K1A]", "normalised enrichment score": 1.7}
{"Variant": "KRAARKLYTSEIS [K4A]", "normalised enrichment score": 1.21}
{"data": "Block 3", "target": "Interferon regulatory factor 3, full length, phosphomimetic (IRF3, Homo sapiens, UniProt Q14653, residues 1-427, S386D/S396D/S398D/S402D/T404D/S405D)", "method": "protein-binding microarray", "form": "double-stranded DNA, one strand shown", "sample": "in vitro", "concentration": "2540 nM top", "notes": "60-bp whole probe", "added": "salmon DNA 0.4 mg/ml", "reference": "random background probes", "reading": "higher = stronger binding", "shared flanks, not repeated": "GCCTAGCAC … GTCTTGATTCGCTTGACGCTGCTG", "UniProt Q14653, sequence (whole entry, unmodified, looked up)": "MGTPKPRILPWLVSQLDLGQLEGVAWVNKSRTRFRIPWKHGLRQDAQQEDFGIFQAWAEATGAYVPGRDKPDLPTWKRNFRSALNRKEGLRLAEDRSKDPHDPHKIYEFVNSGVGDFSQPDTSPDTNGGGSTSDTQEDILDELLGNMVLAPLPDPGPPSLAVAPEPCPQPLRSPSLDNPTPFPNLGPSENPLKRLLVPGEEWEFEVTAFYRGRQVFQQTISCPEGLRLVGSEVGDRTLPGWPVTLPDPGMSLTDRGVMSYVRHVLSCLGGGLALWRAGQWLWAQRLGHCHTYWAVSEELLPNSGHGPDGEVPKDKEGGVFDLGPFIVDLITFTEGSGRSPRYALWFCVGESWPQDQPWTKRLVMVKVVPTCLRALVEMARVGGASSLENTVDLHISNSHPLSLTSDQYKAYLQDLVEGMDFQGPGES"}
{"Sequence": "TCATTTTTTTTTTTGGAACTGTGCTAG", "fitted relative affinity": "1.34 z-score"}
{"Sequence": "AAAGTCTTCACTCTGCTGAAGTGCTAG", "fitted relative affinity": "-0.0048 z-score"}
{"Sequence": "TCACTAGTGTTTTTCTCACTGTGCTAG", "fitted relative affinity": "0.102 z-score"}
{"Sequence": "TTAGGTTTCGGGTTTTGGTTAGTGCTA", "fitted relative affinity": "4.92 z-score"}
{"Sequence": "TTAGGTATAGACACTGGGTTAGTGCTA", "fitted relative affinity": "-0.857 z-score"}
{"Sequence": "GACGAACTGAGGATCGAGACGTGCTAG", "fitted relative affinity": "-0.269 z-score"}
{"Sequence": "GATGATTTCGGGACTGGAGACGTGCTA", "fitted relative affinity": "1.28 z-score"}
{"Sequence": "TTAGAAATCAGTTTCGATTAGTGCTAG", "fitted relative affinity": "4.93 z-score"}
{"Sequence": "GACAGTTTCCTTTCCCTGACGTGCTAG", "fitted relative affinity": "10.6 z-score"}
{"Sequence": "GACGATATCGGGGTTCGAGACGTGCTA", "fitted relative affinity": "-0.0876 z-score"}
{"Sequence": "TCAATTTCAGTTTTCTTACTGTGCTAG", "fitted relative affinity": "4.97 z-score"}
{"Sequence": "TTAGGACTGCGGTATCGGTTAGTGCTA", "fitted relative affinity": "1.1 z-score"}
{"Sequence": "GTCGATTTCGGGTTTCGAGACGTGCTA", "fitted relative affinity": "3.91 z-score"}
{"Sequence": "GATTGGCTGACTTTGGAGATGTGCTAG", "fitted relative affinity": "-0.554 z-score"}
{"Sequence": "GTCATTCTCAACCCTGGTGCTGTGCTA", "fitted relative affinity": "1.18 z-score"}
{"Sequence": "GACGGTTCCGGGTTTCGGGACGTGCTA", "fitted relative affinity": "2.43 z-score"}
{"Sequence": "GACGATATCAGTATCGCGACGTGCTAG", "fitted relative affinity": "0.938 z-score"}
{"Sequence": "TTAGAACTGGGTCTCGGTTAGTGCTAG", "fitted relative affinity": "-0.577 z-score"}
{"Sequence": "GACGGTATCGTCTTTCGGGACGTGCTA", "fitted relative affinity": "1.31 z-score"}
{"data": "Block 4", "target": "Phosphate system positive regulatory protein PHO4, full length, GST-tagged (PHO4, Saccharomyces cerevisiae, UniProt P07270, residues 1-312)", "method": "competition protein-binding microarray", "form": "double-stranded DNA, one strand shown", "sample": "in vitro", "concentration": "2 µM", "notes": "whole 60-bp probe, lowest competitor level", "added": "Cbf1 competitor, 0.05 µM", "reading": "higher = stronger binding", "shared flanks, not repeated": "… GTCTTGATTCGCTTGACGCTGCTG", "Construct (chain)": "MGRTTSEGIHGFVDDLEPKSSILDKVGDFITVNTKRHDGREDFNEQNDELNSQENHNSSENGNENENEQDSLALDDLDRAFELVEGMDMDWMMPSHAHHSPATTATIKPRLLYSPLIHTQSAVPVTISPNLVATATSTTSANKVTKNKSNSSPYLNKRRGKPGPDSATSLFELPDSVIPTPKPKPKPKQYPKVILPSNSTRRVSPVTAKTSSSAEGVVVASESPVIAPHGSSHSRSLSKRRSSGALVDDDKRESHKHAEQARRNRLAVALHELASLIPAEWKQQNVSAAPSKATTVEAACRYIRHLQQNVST"}
{"Sequence": "TCGTTCCAGCCGTTCCACGTTTTTGTTATCTAAGCA", "fluorescence intensity": "12200 a.u."}
{"Sequence": "ATAAGAGTACTGTTCCACGTGTTTCGATTGCCTTTA", "fluorescence intensity": "20600 a.u."}
{"Sequence": "GGCAAGAGTTCTGCATTCGTGATGGATATCGGCGCG", "fluorescence intensity": "4330 a.u."}
{"Sequence": "ATTCTAACCCTGATGAACGTGTCGGTCAACTTACCC", "fluorescence intensity": "11700 a.u."}
{"Sequence": "AAATTACTAAGTTGTCACCGTACTTACCCCGTATGA", "fluorescence intensity": "4050 a.u."}
{"Sequence": "CAGTTTTCCGCAAAGCACGTTTAACTGGGCAGGGAT", "fluorescence intensity": "10500 a.u."}
{"Sequence": "AAATTACTAAGTTTTCACGTGAAATACCCCGTATGA", "fluorescence intensity": "8970 a.u."}
{"Sequence": "TTTTCAAAAATATTGCACGGGCTTTCTGTATATTGA", "fluorescence intensity": "9530 a.u."}
{"Sequence": "TCTTAGCAGTGAGGACACGGGAGTTGCAGATCAATC", "fluorescence intensity": "6300 a.u."}
{"Sequence": "TGCAAACCTGCAATACTCGTGATGGATATTTAATTA", "fluorescence intensity": "8150 a.u."}
{"Sequence": "CGTCCTAGTGATTGGCAGGTGGGTGCCATGAGGAAG", "fluorescence intensity": "9100 a.u."}
{"Sequence": "CTAACGAAGGTTTGCGTAGTGGGTGACAAGCCAAGT", "fluorescence intensity": "3970 a.u."}
{"Sequence": "CGTCCTAGCGATTGAGGCGTGGGTGCCATGAGGAAG", "fluorescence intensity": "9250 a.u."}
{"Sequence": "ACTGAGCATCGTCGGCACGTCTTTGCAGCATCCAAT", "fluorescence intensity": "7780 a.u."}
{"Sequence": "ATTTACGGTTAGTCCCACGCTATAACCCGCCGTTGT", "fluorescence intensity": "6610 a.u."}
{"Sequence": "CGTCCTAGTGATTGCGCGGTGGGTGCCATGAGGAAG", "fluorescence intensity": "7540 a.u."}
{"Sequence": "CATACCCAACCTTGAGTGGTGGGTGAAGATATTTGT", "fluorescence intensity": "4460 a.u."}
{"note": "Some of these lines once more (block 3):"}
{"Sequence": "GACAGTTTCCTTTCCCTGACGTGCTAG", "fitted relative affinity": "10.6 z-score"}
{"Sequence": "GACGATATCGGGGTTCGAGACGTGCTA", "fitted relative affinity": "-0.0876 z-score"}
{"Sequence": "TCAATTTCAGTTTTCTTACTGTGCTAG", "fitted relative affinity": "4.97 z-score"}
{"Sequence": "TTAGGACTGCGGTATCGGTTAGTGCTA", "fitted relative affinity": "1.1 z-score"}
{"Sequence": "GTCGATTTCGGGTTTCGAGACGTGCTA", "fitted relative affinity": "3.91 z-score"}
{"Sequence": "GATTGGCTGACTTTGGAGATGTGCTAG", "fitted relative affinity": "-0.554 z-score"}
{"Sequence": "GTCATTCTCAACCCTGGTGCTGTGCTA", "fitted relative affinity": "1.18 z-score"}
